Experimental data from different studies.
Each line is one published result; not all experiments were run side by side. ± gives the spread as reported.

CCCC[C@H](NC(C)=O)C(=O)N[C@H]1CCC(=O)NC[C@@H](C(=O)N[C@@H](Cc2c[nH]c3ccccc23)C(N)=O)NC(=O)[C@H](CCCNC(=N)N)NC(=O)[C@@H](Cc2ccccc2)NC(=O)[C@H](Cc2c[nH]cn2)NC1=O
half-life (CD Sprague Dawley rat, male, plasma; subcutaneous, 5.0 mg/kg daily, day 1): 6.12 h

Cn1nnc2c(C(N)=O)ncn2c1=O
half-life (microdialysis; male athymic rat, intracranial U87 tumour ECF; oral, 50 mg/kg, cediranib 12 h before, with: cediranib 6 mg/kg oral): 1.1 h

CC(C)=CCC[C@](C)(O[C@@H]1O[C@H](CO)[C@@H](O)[C@H](O)[C@H]1O)[C@H]1CC[C@]2(C)[C@@H]1[C@H](O)C[C@@H]1[C@@]3(C)CC[C@H](O[C@@H]4O[C@H](CO)[C@@H](O)[C@H](O)[C@H]4O[C@@H]4O[C@H](CO)[C@@H](O)[C@H](O)[C@H]4O)C(C)(C)[C@@H]3CC[C@]12C
half-life (Sprague-Dawley rat, plasma; oral, 100 mg/kg of parent ginsenoside, control group, no prebiotic): 11.9 ± 7.54 h

Cc1nc2cccc(OCC(C)(C)C(=O)NC(C)C)c2c(N)c1C(=O)O
half-life (male Sprague-Dawley rat, plasma; oral gavage, 100 mg/kg, day 7): 0.72 h

CC(C)=CCC[C@](C)(O[C@@H]1O[C@H](CO[C@@H]2O[C@H](CO)[C@@H](O)[C@H](O)[C@H]2O)[C@@H](O)[C@H](O)[C@H]1O)[C@H]1CC[C@]2(C)[C@@H]1[C@H](O)C[C@@H]1[C@@]3(C)CC[C@H](O[C@@H]4O[C@H](CO)[C@@H](O)[C@H](O)[C@H]4O[C@@H]4O[C@H](CO)[C@@H](O)[C@H](O)[C@H]4O)C(C)(C)[C@@H]3CC[C@]12C
half-life (Sprague Dawley rats, male, plasma; oral, 86 mg/kg, aqueous solution, with: co-dosed pure ginsenoside mixture): 13.7 ± 7.1 h

CCc1oc2ccc(F)cc2c1C(=O)c1cc(Br)c(O)c(Br)c1
half-life (Sprague-Dawley rats, male, whole blood; intravenous, 0.5 mg/kg): 1.2 ± 0.1 h

O=C(/C=C/c1ccc(O)c(O)c1)O[C@H](Cc1ccc(O)c(O)c1)C(=O)O
half-life (UPLC-MS/MS; Wistar rat, microcirculation dysfunction model, plasma; oral, 100 mg/kg Salvia miltiorrhiza stem-leaf extract FT): 13.2 ± 21 h

CN(CCOc1ccc(CC2SC(=O)NC2=O)cc1)c1ccccn1 (stereo not drawn)
half-life (Sprague-Dawley rat, female, plasma; intraperitoneal, 5 mg/kg of dasatinib, with: dasatinib co-dosed): 1.6 ± 0.38 h

O=C(/C=C/c1ccc(O)c(O)c1/C=C/c1ccc(O)c(O)c1)O[C@H](Cc1ccc(O)c(O)c1)C(=O)O
half-life (UPLC-MS/MS; Wistar rat, microcirculation dysfunction model, plasma; oral, 100 mg/kg Salvia miltiorrhiza stem-leaf extract FT): 9.26 ± 14 h

Nc1nc2c(ccc3ccccc32)s1
half-life (rat Sprague-Dawley, male, plasma; intravenous, 10 mg/kg, three-compartment model): 12 h

CC(C)=CCC[C@](C)(O[C@@H]1O[C@H](CO)[C@@H](O)[C@H](O)[C@H]1O)[C@H]1CC[C@]2(C)[C@@H]1[C@H](O)C[C@@H]1[C@@]3(C)CC[C@H](O)C(C)(C)[C@@H]3[C@@H](O[C@@H]3O[C@H](CO)[C@@H](O)[C@H](O)[C@H]3O[C@@H]3O[C@@H](C)[C@H](O)[C@@H](O)[C@H]3O)C[C@]12C
half-life (Sprague Dawley rats, male, plasma; oral, 45 mg/kg, aqueous solution, with: co-dosed pure ginsenoside mixture): 3.2 ± 2.9 h

CCN1CCN(c2ccc(Nc3cc(N(C)C(=O)Nc4c(Cl)c(OC)cc(OC)c4Cl)ncn3)cc2)CC1
half-life (LC-MS/MS; juvenile female Crl:WI(Han) rats, plasma; oral gavage, 1.0 mg/kg/day, postnatal day 17): 3.41 h
